Assay results collected from several papers.
A part holds a random share of what one study measured. Changes are numbered by the printed parent chain.

Study 1
Target: CCNB1, cyclin fold, Cln2 fusion (human)
Technique: yeast growth competition, sequencing
Medium: yeast
Setting: strong parent motif
Reference: not given
Reading: higher = stronger binding
Starting sequence: E2F1 docking peptide (human); PPVKRRLDLETDH; partner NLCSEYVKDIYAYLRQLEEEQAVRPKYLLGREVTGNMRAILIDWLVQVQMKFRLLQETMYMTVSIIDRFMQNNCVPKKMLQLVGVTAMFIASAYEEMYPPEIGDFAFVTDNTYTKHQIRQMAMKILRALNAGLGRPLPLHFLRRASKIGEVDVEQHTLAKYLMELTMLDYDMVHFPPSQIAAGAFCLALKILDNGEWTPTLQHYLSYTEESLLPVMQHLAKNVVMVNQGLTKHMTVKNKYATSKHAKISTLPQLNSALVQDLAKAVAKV
| Substitution | normalised enrichment score |
| --- | --- |
| V3G | -0.0348 |
| L7G | 0.386 |
| L7W | 0.917 |
| L7T | 0.868 |
| R5C | 0.674 |
| D8T | 1.52 |
| E10D | 2.24 |

Study 2
Target: Sal-like protein 4, full length isoform A (SALL4, Homo sapiens, UniProt Q9UJQ4, residues 1-1053)
Chain of UniProt Q9UJQ4 (whole entry, looked up): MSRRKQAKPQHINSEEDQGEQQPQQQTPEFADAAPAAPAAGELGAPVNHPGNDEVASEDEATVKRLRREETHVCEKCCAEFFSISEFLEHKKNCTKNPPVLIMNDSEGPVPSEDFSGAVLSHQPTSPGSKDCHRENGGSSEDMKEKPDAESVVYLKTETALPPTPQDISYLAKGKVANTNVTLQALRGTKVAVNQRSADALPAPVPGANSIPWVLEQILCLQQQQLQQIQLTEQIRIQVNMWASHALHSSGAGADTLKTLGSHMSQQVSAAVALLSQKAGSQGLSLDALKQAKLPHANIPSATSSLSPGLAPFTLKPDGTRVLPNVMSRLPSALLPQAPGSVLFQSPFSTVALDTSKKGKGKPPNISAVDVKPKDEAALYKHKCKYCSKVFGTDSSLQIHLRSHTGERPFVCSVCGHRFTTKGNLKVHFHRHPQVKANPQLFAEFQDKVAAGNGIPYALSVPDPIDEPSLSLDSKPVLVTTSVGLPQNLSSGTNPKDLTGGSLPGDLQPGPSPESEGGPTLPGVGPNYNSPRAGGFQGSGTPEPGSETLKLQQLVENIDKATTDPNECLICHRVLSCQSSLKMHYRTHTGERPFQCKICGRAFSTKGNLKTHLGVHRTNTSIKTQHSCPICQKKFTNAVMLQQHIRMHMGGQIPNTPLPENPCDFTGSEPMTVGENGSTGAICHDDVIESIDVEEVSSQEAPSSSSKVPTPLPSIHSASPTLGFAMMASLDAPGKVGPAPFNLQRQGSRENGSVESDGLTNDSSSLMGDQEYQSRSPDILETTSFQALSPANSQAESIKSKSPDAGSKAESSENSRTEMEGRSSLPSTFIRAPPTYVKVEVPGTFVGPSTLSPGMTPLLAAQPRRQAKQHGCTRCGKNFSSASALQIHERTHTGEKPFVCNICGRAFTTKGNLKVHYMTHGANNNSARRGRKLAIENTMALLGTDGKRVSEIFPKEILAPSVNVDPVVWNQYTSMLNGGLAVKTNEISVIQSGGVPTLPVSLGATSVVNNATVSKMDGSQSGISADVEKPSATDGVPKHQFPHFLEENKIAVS
Technique: universal PBM
Form: double-stranded DNA, one strand shown
Medium: in vitro
Tested at: 600 nM
Setting: 8-mer, flanks averaged, mean of replicates
Reading: higher = stronger binding
| Strand | E-score |
| --- | --- |
| AACCAATG | 0.128 |
| GAGCACAA | -0.0373 |
| TCACCGGA | -0.174 |
| CGTGACTA | 0.149 |
| AGGACTCG | -0.105 |
| CTCGTACC | -0.025 |
| CGTCCCTC | -0.244 |
| ATGCGAAG | 0.152 |

Study 3
Target: RNA binding protein fox-1 homolog 2, RRM domain, GST-SBP tag (RBFOX2, Homo sapiens, UniProt O43251-10, residues 100-194)
Technique: RNA Bind-n-Seq
Form: RNA
Medium: in vitro
Tested at: 365 nM
Setting: natural RNA segment, single round, ends assumed
Reference: no-protein control
Reading: higher = stronger binding
All sequences stand within: GGGAGUUCUACAGUCCGACGAUC … UGGAAUUCUCGGGUGCCAA
Residues (chain): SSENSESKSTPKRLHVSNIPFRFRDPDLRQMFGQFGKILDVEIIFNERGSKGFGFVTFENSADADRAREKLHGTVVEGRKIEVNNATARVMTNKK
| Strand | RBNS enrichment (R) |
| --- | --- |
| UUUUGACCCAAGUGUUUUAACUUAGUCCAGAAUAGUUUCCUUUGUCUUUUGUAACUUUACAGAGGAUCAAAGCCGUUCUUUUCCAUUUCUUGGCCAGGCCUGUACUCUCC | 0.338 |
| CGCCCCCCUCCUGCUGGUUCCCCAGCCCUUUUCCCUGGCCCUGGCUUGGAGAAUCUGUUUUCAAUCUCCACUGAUUGCCCCCUUGCUGGCCAGCCCAGGGGCCUUUACCA | 0.493 |
| AUUUCCAUUGGAGAUCACUGUCCAGCCAUCUAAAGCCCUGUUAUUCGAGUCAAGCUUAUCCCCAUUUUUGAGAGAGAAGGGGUACCUUCACAGACCGAUGCCCUUCUUAC | 0.245 |
| GGGUGGGUGGGGGCUGACCCCAGCUUCCAGGGGACUGUCACUGUGGACGCCAAAAUGGCAUAACUGAGAUAAGGUGAAUAAGUGACAAAUAAAGCCAGUUUUUUACAAGG | 0.239 |
| UGCACAGCUUGGUUAGACCUAGAUUUAACCCUAAGGUAAGAUGCUGGGGUAUAGAACGCUAAGAAUUUUCCCCCAAGGACUCUUGCUUCCUUAAGCCCUUCUGGCUUCGU | 0.243 |
| GGCAGGCCCAGGCCAGCCAGUGCCCGAGGCCAGGAAGGCCGGGCCGUGGAGGUCCUGUCCACAGCUGGACAGGAGAGACACCGCCUGCGGUGGUUCAUUCCUUUCAGCCA | 0.223 |
| UUUUCUCUCCUCCCCAGAGGCCCCAUGGGAUGCCGCGUGCUGUUGGGUUUGGGCUAAGAUCUAAGACCCAGCAGAUAGGAGACAGCAGGUACCACCCACACAGCACAGCU | 0.478 |
| CGACGCCGAUCCAUAGUACUGUACAGACCCACCGCCACCCUUCUCCUCGGAAGAUGCACUGUGCUGUUUGAAAACAUGUAGCCGUUUAAGGCUAGAGUAUUUUAUAUAAA | 0.591 |
| GGUUGGAAAUUAUACGUUUAUACUUUUAUUAGUUUGCUCCAAGUAUGACUGUGUUCACUUAAGUUUAGAGAAACACUGGGUUUUGCUAAACUCGGUUAACAAAAGCCACU | 1.82 |
| UGCUACUGCUCAUGAUUCAAAUGUCUACCACAAUCUGAAUUGGGAUGUUGACAUUUUGUGGUUAUUUUCAGAUUAAUAGUAAUUGUUAUGCUCUUAAAAGCACUCAUAGA | 0.855 |
| UUGGUUGGGAGGGAAAAGGACAUUAAUUUGAAGUUUCAUGUUAUUCAUGCCAGGAUUGUUUGAUAGAGCAUGAAGGUUUUGUUUACCCAUAAAAGUAUUAGAGGCAGCGU | 1.5 |

Further values, each from its own experiment
| Molecule | target | test | test system | setting | how to read | endpoint | result |
| --- | --- | --- | --- | --- | --- | --- | --- |
| PhoQ, residues 284 288 289 292 302 303 TAVSDG | PhoP, residues 12 14 15 18 19 LQHIR (Escherichia coli, UniProt P23836) | Sort-seq, measured: YFP reporter | E. coli | PhoQ-PhoP variant library, added: 10 µM Mg2+ | reference: high Mg2+ state, higher = stronger signaling | fold induction | 4.84 |

For quick reference, copied from above (study 1):
| Substitution | normalised enrichment score |
| --- | --- |
| R5C | 0.674 |
| E10D | 2.24 |
